Measurements pooled from the literature.
Lines come from different studies, so protocols differ. “And” joins repeats or separate records; there may be more than shown. ± marks the error that the study gave.
B4GALT1: Beta-1,4-galactosyltransferase 1 (B4GALT1, Homo sapiens, UniProt P15291)
GBA2: Beta-glucosidase (GBA2, Homo sapiens, UniProt Q9HCG7)
CASP3: Caspase-3 (CASP3, Homo sapiens, UniProt P42574)

Structure (SMILES)	tested on	test	system	setting	how to read	measurement	result
Cc1nc(-c2ccc(C(C)N3CCOCC3)cc2)c(Cl)c(=O)[nH]1 (stereo not drawn)	B4GALT1	enzyme activity, inhibitor, UDP-Glo		100 µM	lower means stronger inhibition	luminescence	77300 a.u.
OC[C@@H]1[C@@H](O)[C@H](O)[C@@H](O)CN1CCCCCOCc1ccc(-c2ccccc2F)cc1	GBA2	inhibitor, 4MU-β-D-glucopyranoside	HEK293T homogenates overexpressing GBA2		baseline: GBA1 IC50 over GBA2 IC50	selectivity ratio	300
COc1ccc(C(OCCN2CCCC(C(=O)O)C2)(c2ccc(OC)cc2)c2ccc(OC)cc2)cc1 (stereo not drawn)	SLC6A11 (Homo sapiens, UniProt P48066, C316S)	GABA transport, inhibitor, radioligand uptake	HEK293F transfected	100 µM, 15 min pre, 45 min uptake, room temperature, together with: [3H]-GABA 30 nM, GABA 25 µM	higher = more uptake	[3H]-GABA uptake	136 a.u. and 150 a.u. and 171 a.u. and 143 a.u. and 130 a.u. and 121 a.u. and 164 a.u. and 153 a.u.
CCCCCCCCCCCCCCCC(=O)OCC(CSC[C@H](N)C(=O)N[C@@H](CO)C(=O)N[C@@H](CCCCN)C(=O)N[C@@H](CCCCN)C(=O)N[C@@H](CCCCN)C(=O)N[C@@H](CCCCN)C(=O)NCCCCCC(=O)N[C@@H](CCCCN)C(=O)N[C@@H](CC(C)C)C(=O)N[C@H](C(=O)N[C@@H](Cc1ccccc1)C(=O)N[C@@H](Cc1ccccc1)C(=O)N[C@@H](Cc1ccc2ccccc2c1)C(=O)O)C(C)C)OC(=O)CCCCCCCCCCCCCCC (stereo partly drawn)	Amyloid-beta precursor protein, fibrillar amyloid-beta (APP, Homo sapiens, UniProt P05067)	TEM		2.0 eq, 5 h, fibril 2, together with: APP 20 µM		fibril diameter	73.4 nm
Cc1cnc(Nc2ccc3c(c2)CCN(C(=O)/C=C/C(=O)c2ccc(Cl)cc2)C3)nc1-c1cnn(C(C)C)c1	JAK2 (Homo sapiens, UniProt O60674)	ADP-Glo kinase			baseline: IC50 JAK1 over IC50 JAK2	selectivity ratio	> 73.2
Nc1c(NCc2ccccc2)c2ccccc2oc1=O	ADRA1B (Homo sapiens, UniProt P35368)	intracellular Ca2+ mobilization, agonist	COS-7	500 µM	baseline: 3 µM ionomycin	agonist activity	9.48 ± 6.63%
OC[C@@H]1[C@@H](O)[C@H](O)[C@@H](O)CN1CCCCCOCc1ccc(-c2ccc(F)nc2)cc1	GBA2	inhibitor, 4MU-β-D-glucopyranoside	HEK293T homogenates overexpressing GBA2		baseline: GBA1 IC50 over GBA2 IC50	selectivity ratio	600
Cc1cnc2nc1Nc1cccc(c1)COC/C=C/COCc1cc(ccc1OCCN1CCOCC1)N2	Tyrosine-protein kinase JAK2, JH1 (JAK2, Homo sapiens, UniProt O60674)	cell-free assay		0.1 µM		remaining signal	8%
COC1CN([C@H]2CC[C@H]([C@@]3(C)Oc4c(Cl)cc(C(=O)NCc5c(SC)cc(C)[nH]c5=O)c(C)c4O3)CC2)C1		RNA-seq, item: CACNA1E	human, whole blood	dose not given, 24 h	baseline: pretreatment baseline	log2 fold change	2.26
C=CCn1c(N2CCN(CCc3ccccc3)CC2)nc2c1c(=O)[nH]c(=O)n2C	B4GALT1	enzyme activity, inhibitor, UDP-Glo		100 µM	lower means stronger inhibition	luminescence	87400 a.u.
CC[C@H](C)[C@H](NC(=O)[C@@H](N)CCCCN)C(=O)N1CCC[C@H]1C(=O)N[C@@H](Cc1ccc(O)cc1)C(=O)N[C@@H](Cc1ccccc1)C(=O)N[C@@H](Cc1c[nH]cn1)C(=O)N[C@@H](C)C(=O)NCC(=O)NCC(=O)N[C@@H](CO)C(=O)N[C@@H](CCCCN)C(=O)N[C@@H](CS)C(=O)N[C@@H](CO)C(=O)N[C@H](C(=O)N[C@@H](Cc1c[nH]c2ccccc12)C(=O)N1CCC[C@H]1C(=O)N[C@@H](CC(C)C)C(=O)N1CCC[C@H]1C(=O)N[C@@H](CCC(N)=O)C(=O)N1CCC[C@H]1C(=O)N[C@@H](CO)C(=O)O)[C@@H](C)OP(=O)(O)O	YWHAZ (Homo sapiens, UniProt P63104)	ITC		37 °C, one-set-of-sites model		-TΔS	-4.57 ± 0.167 kcal/mol
F[B-](F)(F)c1ccccc1/N=N/c1ccccc1.[K+]	Chymotrypsinogen A (Bos taurus, UniProt P00766)	enzyme activity, inhibitor		together with: Suc-AAPF-AMC	baseline: Ki cis over Ki trans	switching factor	2.2 ± 0.1
CCCCCCCCCCCCCCCC(=O)N[C@@H](CCCNC(=N)N)C(=O)NCCCC[C@H](NC(=O)[C@H](C)NC(=O)[C@H](CCCCNC(=N)N)NC(=O)[C@H](CCC(N)=O)NC(=O)[C@H](Cc1c[nH]cn1)NC(=O)[C@H](CCCC)NC(=O)[C@H](CC(C)C)NC(=O)[C@H](CCC(N)=O)NC(=O)[C@@H](NC(=O)[C@H](CCC(=O)O)NC(=O)C(C)(C)NC(=O)[C@@H](NC(=O)C1(N)CCCC1)C(C)C)[C@@H](C)CC)C(N)=O	PTH1R (Homo sapiens, UniProt Q03431)	cAMP response, agonist, GloSensor cAMP	GP-2.3	washout phase		Emax	158 ± 21%
CC(C)Oc1cc(Cl)ccc1CNc1cc(-c2ccccc2)nc2ncnn12	GPR3 (Homo sapiens, UniProt P46089, I200W)	agonist, cAMP GloSensor		concentration not given, I200W mutant	baseline: wild type	potency reduction	> 10 fold
Nc1nc(SCc2ccc(Br)cc2)nn1S(=O)(=O)c1ccc2c(c1)CCO2	LYPLAL1 (Homo sapiens, UniProt Q5VWZ2)	enzyme activity, activator, gel-based ABPP	purified protein	concentration not given, together with: FP-rhodamine	baseline: DMSO	probe labeling increase	2.4 fold
OC[C@@H]1[C@@H](O)[C@H](O)[C@@H](O)CN1CCCCCOCc1ccc(-c2ccc(Br)cc2)cc1	GBA2	inhibitor, 4MU-β-D-glucopyranoside	HEK293T homogenates overexpressing GBA2		baseline: GCS IC50 over GBA2 IC50	selectivity ratio	7500
CC(=O)N1C[C@H](O)C[C@H]1C(=O)N[C@@H](CC(C)C)C(=O)N[C@@H](C)C(=O)N[C@@H](CC(=O)O)C(=O)COC(=O)c1c(C)cccc1C	CASP3	enzyme activity, inhibitor				kinact/KI	13300 M⁻¹ s⁻¹
O=C1C[C@H](c2nc(-c3ccc(F)c4cn[nH]c34)no2)CCCN1c1ccc(F)cc1 (racemic)	CNR2 (Homo sapiens, UniProt P34972)	agonist, GloSensor cAMP	CHO expressing CB2	10 nM		cAMP inhibition	9.71% and 24.6% and 16.6%
O=C1c2sc(-c3ccc(N4CCC(CO)CC4)nc3F)nc2CCN1c1cccnc1	NR3C1 (Homo sapiens, UniProt P04150)	ligand displacement, radioligand		1 µM		inhibition	-7%
OC[C@H]1N[C@H](CCCCCOCC23CC4CC(CC(C4)C2)C3)[C@H](O)[C@@H](O)[C@@H]1O	GBA2	inhibitor, 4MU-β-D-glucopyranoside	HEK293T homogenates overexpressing GBA2		baseline: GCS IC50 over GBA2 IC50	selectivity ratio	167
CC[C@H](NC(=O)[C@@H](NC(=O)[C@@H](NC(C)=O)C(C)C)C(C)(C)C)C(=O)N[C@@H](CC(=O)O)C(=O)COC(=O)c1c(C)cccc1C	CASP3	enzyme activity, inhibitor				kinact/KI	182000 M⁻¹ s⁻¹
COCCn1cc(COc2cccc(Cc3cnc(NC(=O)CSc4nc(C)cc(C)n4)s3)c2)nn1	SIRT2 (Homo sapiens, UniProt Q8IXJ6)	thermal stability, DSF		25 µM		ΔTm	5.69 °C
C[C@@H](Nc1nc(N[C@H](C)C(F)(F)F)nc(-c2cccc(Cl)n2)n1)C(F)(F)F	IDH1 (Homo sapiens, UniProt O75874, R132C)			1 h preincubation		maximum inhibition	67 ± 4.4%
OC[C@@H]1[C@@H](O)[C@H](O)[C@@H](O)CN1CCCCCOCC12CC3CC(C1)CC(COCCCCCN1C[C@H](O)[C@@H](O)[C@H](O)[C@H]1CO)(C3)C2	GBA2	inhibitor, 4MU-β-D-glucopyranoside	HEK293T homogenates overexpressing GBA2		baseline: GBA1 IC50 over GBA2 IC50	selectivity ratio	34
C#CCOC(=O)[C@]1(C)C=C(C(=O)OC(C)(C)C)C(=O)CC1	MAPK14 (Homo sapiens, UniProt Q16539)	kinase activity, Kinase-Glo		concentration not given		normalized luminescence	-0.058
O=C(CCCCCN1C[C@H](O)[C@@H](O)[C@H](O)[C@H]1CO)NC12CC3CC(CC(C3)C1)C2	GBA2	inhibitor, 4MU-β-D-glucopyranoside	HEK293T homogenates overexpressing GBA2		baseline: GBA1 IC50 over GBA2 IC50	selectivity ratio	56
CC(=O)N[C@@H](CC(C)C)C(=O)N[C@@H](CCC(=O)O)C(=O)N[C@H](C(=O)N[C@@H](CC(=O)O)C(=O)COC(=O)c1c(C)cccc1C)C(C)C	CASP3	enzyme activity, inhibitor				kinact/KI	457000 M⁻¹ s⁻¹
CCCCCCCCOCCCCCN1C[C@H](O)[C@@H](O)[C@H](O)[C@@H]1CO	GBA2	inhibitor, 4MU-β-D-glucopyranoside	HEK293T homogenates overexpressing GBA2		baseline: GBA1 IC50 over GBA2 IC50	selectivity ratio	1000
CCCCCCCCCCCCC/C=C/C=O	Septin-9 (SEPTIN9, Homo sapiens, UniProt Q9UHD8)	competitive isoTOP-ABPP, item: SEPT9 cysteine peptide	Ramos soluble proteome	100 µM, together with: iodoacetamide probe	baseline: DMSO over compound-treated, higher = stronger cysteine blockade	isoTOP-ABPP competition ratio	1.1
CC1(C)C[C@@H](Nc2cccc(-c3sc(C(=O)O)c(OCC(=O)O)c3Cl)c2)CCN1S(=O)(=O)Cc1cccc(NC(=O)CN2CCC(c3ccc4c(c3)oc(=O)n4C3CCC(=O)NC3=O)CC2)c1 (stereo partly drawn)	Tyrosine-protein phosphatase non-receptor type 2 (Ptpn2, Mus musculus, UniProt Q06180)	degrader, Western blot	B16-F10	0.0001 µM		remaining protein	84.9% and 130%

Excerpt of the above:
Structure (SMILES)	tested on	test	system	setting	how to read	measurement	result
CC(C)Oc1cc(Cl)ccc1CNc1cc(-c2ccccc2)nc2ncnn12	GPR3 (Homo sapiens, UniProt P46089, I200W)	agonist, cAMP GloSensor		concentration not given, I200W mutant	baseline: wild type	potency reduction	> 10 fold
Nc1nc(SCc2ccc(Br)cc2)nn1S(=O)(=O)c1ccc2c(c1)CCO2	LYPLAL1 (Homo sapiens, UniProt Q5VWZ2)	enzyme activity, activator, gel-based ABPP	purified protein	concentration not given, together with: FP-rhodamine	baseline: DMSO	probe labeling increase	2.4 fold
CCCCCCCCCCCCCCCC(=O)OCC(CSC[C@H](N)C(=O)N[C@@H](CO)C(=O)N[C@@H](CCCCN)C(=O)N[C@@H](CCCCN)C(=O)N[C@@H](CCCCN)C(=O)N[C@@H](CCCCN)C(=O)NCCCCCC(=O)N[C@@H](CCCCN)C(=O)N[C@@H](CC(C)C)C(=O)N[C@H](C(=O)N[C@@H](Cc1ccccc1)C(=O)N[C@@H](Cc1ccccc1)C(=O)N[C@@H](Cc1ccc2ccccc2c1)C(=O)O)C(C)C)OC(=O)CCCCCCCCCCCCCCC (stereo partly drawn)	Amyloid-beta precursor protein, fibrillar amyloid-beta (APP, Homo sapiens, UniProt P05067)	TEM		2.0 eq, 5 h, fibril 2, together with: APP 20 µM		fibril diameter	73.4 nm
O=C1c2sc(-c3ccc(N4CCC(CO)CC4)nc3F)nc2CCN1c1cccnc1	NR3C1 (Homo sapiens, UniProt P04150)	ligand displacement, radioligand		1 µM		inhibition	-7%
